# Results gathered from unrelated publications.
# Lines come from different studies, so protocols differ.
# Target: Myosin-IIIb (MYO3B, Homo sapiens, UniProt Q8WXR4)
SMILES,test,conditions,how to read,endpoint,value
Nc1ncc(-c2cc(-c3cnn(CC(F)(F)F)c3)ncc2F)nc1C(=O)NC1CNCC(F)C1 (stereo not shown),enzyme activity,1 µM,baseline: DMSO control,remaining activity,108%
NC(=O)[C@@H](O)C[C@H]1CCc2sc3ncnc(O[C@H]4CC[C@H](N5CCOCC5)CC4)c3c21,"enzyme activity, inhibitor",10 µM,,inhibition,13%
Cc1cnc2nc1Nc1cccc(c1)COC/C=C/COCc1cc(ccc1OCCN1CCOCC1)N2,binding,0.1 µM,,remaining binding,97%
CCn1cc(C(=O)O)c(=O)c2c(N)c(F)c(NC3CCCCC3)cc21,kinase activity,"0.1 µM, added: ATP at Km",,inhibition,-5.9%
CCN1CCN(Cc2ccc(C(=O)Nc3ccc(C)c(NCc4cnc5[nH]ccc5c4OC)c3)cc2C(F)(F)F)CC1,"binding, competition with immobilised ligand",1 µM,,remaining binding,49%
COc1c(Cl)cccc1Nc1c(-c2ccncc2C#C[C@@]2(C)CCCN2C(=O)/C=C/CN(C)C)[nH]c2c1C(=O)NCC2,"binding, competition with immobilised ligand",3 µM,,remaining binding,88%
CNC(=O)C[C@H](Cc1ccc(C#N)cc1)NC(=O)c1cc(-c2ccc(CN[C@H](C)c3ccc(C)cc3)o2)ccc1Cl,"enzyme activity, inhibitor",1 µM,,activity vs control,108%
C=CC(=O)N1CCCC(n2c(=O)c3ncccc3n(Cc3ccc(Oc4ccccc4)cc3)c2=O)C1 (stereo not shown),"cell-free assay, competition with immobilised ligand",1 µM,,remaining binding,100%
COc1cc(Nc2nccc(-c3cnn4nc(OC)ccc34)n2)cc(C(F)(F)F)c1,"binding, competition with immobilised ligand",1 µM,,remaining binding,82%
NC(=O)C[C@H]1CCc2sc3ncnc(O[C@H]4CC[C@H](N5CCOCC5)CC4)c3c21,"enzyme activity, inhibitor",10 µM,,inhibition,3%
Nc1ncc2c(n1)-c1c([nH]c3ccc(C4=CCOCC4)cc13)CCC2,"binding, competition with immobilised ligand",1 µM,,remaining binding,91%
COc1cc(Nc2nc(C)cc(-c3cnn4nc(OC)ccc34)n2)cc(C(F)(F)F)c1,inhibitor,1 µM,baseline: control,remaining activity,100%
CN1CC[C@@H](COc2cnc(C#N)cc2-c2ccn3nc(NC(=O)C4CC4)cc3c2)C1,"enzyme activity, inhibitor",1 µM,,inhibition,4%
CC(C)=CC1OC(C)(C)C2C=C3C(=O)C(Cl)=CC(O)C3C3C(O)C4OC4C(=O)C132 (stereo not shown),"cell-free assay, competition with immobilised ligand",10 µM,,remaining binding,100%
CNC1C[S+]2CC[S+]3CC[S+](C1)[Ru-4]321([N]=C=S)[n]2c3ccc(OC)cc3c3c4c(c5cc(F)c[n+]1c5c32)C(=O)NC4=O (stereo not shown),KinomeScan,0.1 µM,baseline: untreated,remaining binding,70%
Cc1ccc(-c2c(/C=C(\C#N)C(=O)NC(C)C)n(CCCO)c3ncnc(N)c23)cc1,"binding, competition with immobilised ligand",1 µM,,remaining binding,78%
O=C(Cc1ccc(OCc2ccccc2)cc1)NC1(C(=O)O)CCN(C(=O)c2ccc(-c3cccc(Cl)c3)cc2)CC1,"enzyme activity, inhibitor",10 µM,,activity vs control,100%
C=CC(=O)N1CCc2ccc(-n3c(=O)ccc4cnc5ccc(-c6cnn(C)c6)cc5c43)cc21,KINOMEscan,1 µM,baseline: DMSO control,remaining binding,100%
C=CC(=O)N1Cc2nc(-c3cc(-c4cc(Cl)cnc4Cl)c(F)cc3F)n(-c3ccncn3)c2C1,cell-free assay,1 µM,,inhibition,9.1%
Cc1nc2c(F)cc(-c3nc(Nc4ccc(CNC(=O)CCCCCCC(=O)NO)cc4)ncc3F)cc2n1C(C)C,"enzyme activity, inhibitor",1 µM,,inhibition,82%
CNC(=O)C1CCN(c2cc(C)c(F)cc2NC(=O)c2ccc(-c3cc(O)ccc3C)c(C)c2)CC1,"binding, competition with immobilised ligand",1 µM,,remaining binding,100%
CN1CCN(Cc2ccc(-c3ccc(CO[C@H]4CCC[C@@H]4NC(=O)c4cc(-c5cnn(C)c5)cnc4N)cc3)cc2)CC1,"enzyme activity, inhibitor",0.1 µM,,inhibition,3%

# Excerpt of the above:
SMILES,test,conditions,how to read,endpoint,value
NC(=O)C[C@H]1CCc2sc3ncnc(O[C@H]4CC[C@H](N5CCOCC5)CC4)c3c21,"enzyme activity, inhibitor",10 µM,,inhibition,3%
Nc1ncc2c(n1)-c1c([nH]c3ccc(C4=CCOCC4)cc13)CCC2,"binding, competition with immobilised ligand",1 µM,,remaining binding,91%
